Earlier results as cited in several papers.
Compare with care: the assays were run in different laboratories. ± gives the spread as reported.

Sequences of proteins named here, by UniProt entry; tags and fusion partners are left off.
UniProt P49146, whole entry: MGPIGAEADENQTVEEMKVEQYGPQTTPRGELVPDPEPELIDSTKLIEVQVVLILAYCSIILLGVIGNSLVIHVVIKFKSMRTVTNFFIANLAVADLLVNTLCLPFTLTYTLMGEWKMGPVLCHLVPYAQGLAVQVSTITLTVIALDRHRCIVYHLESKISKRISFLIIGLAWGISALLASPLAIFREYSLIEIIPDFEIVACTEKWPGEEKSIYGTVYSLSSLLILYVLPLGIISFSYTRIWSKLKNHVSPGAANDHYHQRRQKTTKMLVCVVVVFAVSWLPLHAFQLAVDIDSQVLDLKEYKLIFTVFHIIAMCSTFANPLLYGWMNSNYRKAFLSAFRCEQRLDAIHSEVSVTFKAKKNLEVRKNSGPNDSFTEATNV
UniProt P04757, whole entry, looked up: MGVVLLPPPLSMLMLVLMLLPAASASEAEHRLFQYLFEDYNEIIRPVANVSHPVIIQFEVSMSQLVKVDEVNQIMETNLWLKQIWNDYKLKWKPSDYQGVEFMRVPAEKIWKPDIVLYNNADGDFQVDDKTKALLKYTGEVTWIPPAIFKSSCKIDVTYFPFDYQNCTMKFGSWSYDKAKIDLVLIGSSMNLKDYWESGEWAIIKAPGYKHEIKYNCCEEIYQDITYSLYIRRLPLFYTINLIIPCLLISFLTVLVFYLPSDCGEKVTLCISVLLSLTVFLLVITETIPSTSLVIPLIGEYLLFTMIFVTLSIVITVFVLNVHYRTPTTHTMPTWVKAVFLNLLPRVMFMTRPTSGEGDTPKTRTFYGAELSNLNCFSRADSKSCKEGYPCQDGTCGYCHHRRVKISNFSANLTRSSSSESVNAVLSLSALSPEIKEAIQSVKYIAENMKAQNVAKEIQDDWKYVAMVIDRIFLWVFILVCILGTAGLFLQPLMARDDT
UniProt P12390, whole entry, looked up: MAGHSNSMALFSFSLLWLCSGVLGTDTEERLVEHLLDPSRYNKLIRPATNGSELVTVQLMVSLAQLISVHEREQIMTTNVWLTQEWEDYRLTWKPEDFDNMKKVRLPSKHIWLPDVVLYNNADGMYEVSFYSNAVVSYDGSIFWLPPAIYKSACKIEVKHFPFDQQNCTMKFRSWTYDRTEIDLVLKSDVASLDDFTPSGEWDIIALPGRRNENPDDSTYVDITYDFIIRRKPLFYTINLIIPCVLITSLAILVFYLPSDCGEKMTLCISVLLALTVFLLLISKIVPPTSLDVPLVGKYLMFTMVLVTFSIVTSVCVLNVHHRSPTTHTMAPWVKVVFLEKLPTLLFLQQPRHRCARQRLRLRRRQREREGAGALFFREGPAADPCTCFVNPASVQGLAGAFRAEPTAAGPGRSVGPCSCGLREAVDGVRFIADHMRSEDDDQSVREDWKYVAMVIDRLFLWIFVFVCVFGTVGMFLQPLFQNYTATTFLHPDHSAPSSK
UniProt P43143, whole entry M241L/F253L/V303I/V320I/I327V/A333T/K339T, looked up: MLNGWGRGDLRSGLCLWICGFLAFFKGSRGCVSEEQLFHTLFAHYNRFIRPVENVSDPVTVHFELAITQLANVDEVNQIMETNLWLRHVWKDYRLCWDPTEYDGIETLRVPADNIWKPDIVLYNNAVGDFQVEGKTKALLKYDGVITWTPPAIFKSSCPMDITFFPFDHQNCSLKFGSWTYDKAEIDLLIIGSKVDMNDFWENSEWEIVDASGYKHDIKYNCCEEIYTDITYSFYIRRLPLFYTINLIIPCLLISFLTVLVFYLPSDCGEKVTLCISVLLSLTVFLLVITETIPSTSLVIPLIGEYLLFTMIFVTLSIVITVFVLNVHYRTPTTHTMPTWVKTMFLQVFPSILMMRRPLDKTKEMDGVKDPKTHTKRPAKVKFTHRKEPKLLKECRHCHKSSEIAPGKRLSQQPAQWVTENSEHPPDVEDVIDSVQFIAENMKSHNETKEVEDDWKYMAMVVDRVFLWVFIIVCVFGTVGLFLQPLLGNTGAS

| Structure (SMILES) | target or system | test | test system | setting | scale | measurement | value |
| --- | --- | --- | --- | --- | --- | --- | --- |
| O=C(NN1C(=O)[C@@H]2[C@@H]3C=C[C@@H]([C@H]4C[C@@H]34)[C@@H]2C1=O)c1ccc(C(F)(F)F)cc1 | monkeypox virus | viral replication | Vero E6, Zaire | – | – | EC50 | 8 ± 1.4 nM |
| CN(C)C(=O)Oc1ccc[n+](C)c1 | – | – | mouse | – | reference: LD50 pretreated over non-pretreated | protective ratio | 0.9 |
| CN1CC[C@]23c4c5ccc(O)c4O[C@H]2[C@@H](O)C=C[C@H]3[C@H]1C5 | – | hot plate test | rat | subcutaneous | – | ED50 | 3.94 mg/kg |
| Nc1nc(O)c2nc(CNc3ccc(C(=O)O)cc3)cnc2n1 | ricin A chain | – | – | – | – | IC50 | 600000 nM |
| O=[As]c1ccccc1 (stereo not drawn) | NPY2R (Homo sapiens, UniProt P49146) | binding | membrane particulates | – | – | Ki | > 2 mM |
| CC(C)C[C@@H]1NC(=O)[C@H](CCC(=O)O)NC(=O)[C@@H]2CCCN2C(=O)[C@H](Cc2c[nH]cn2)NC(=O)[C@H](CCC(=O)O)NC(=O)[C@H](C(C)C)NC(=O)[C@H](CO)NC(=O)[C@@H]2CSSC[C@H](NC(=O)CN)C(=O)N[C@@H](CSSC[C@@H](C(N)=O)NC1=O)C(=O)N[C@@H](CO)C(=O)N[C@@H](Cc1c[nH]cn1)C(=O)N1CCC[C@H]1C(=O)N[C@@H](C)C(=O)N2 | Chrna3/Chrnb2/Chrna6, with beta3 subunit (Rattus norvegicus, UniProt P04757+P12390+P43143) | antagonist | – | – | – | IC50 | 114 nM |
| CNC(=O)Oc1cccc2c1OC(C)(C)C2 | cholinesterases | – | – | concentration not given, spontaneous reactivation | – | reactivation half-life | ~2 h |
| CCOP(=S)(CC)Sc1ccccc1 (stereo not drawn) | acetylcholinesterase | inhibitor, qHTS | – | together with: human liver microsomes | – | IC50 | 2240 nM |
| COc1ccc(O)cc1 | – | – | – | – | – | pKa | 10.2 |
| O=c1c2ccccc2[se]n1-c1ccccc1 | Botulinum neurotoxin type A, light chain (Clostridium botulinum, UniProt P0DPI0) | irreversible inhibitor | – | – | – | kinact/Ki | 23000 M⁻¹ s⁻¹ |
| N#Cc1nn(-c2c(Cl)cc(C(F)(F)F)cc2Cl)c(N)c1[S+]([O-])C(F)(F)F (stereo not drawn) | GABA-A receptor | binding | – | 1 µM, together with: [3H]EBOB | – | inhibition | 69% |
| COC(=O)[C@@H]1[C@H]2C[C@H]3c4[nH]c5ccccc5c4CCN3C[C@@H]2CC[C@@H]1O | – | – | Sprague-Dawley rat | dose not given, higher dose, together with: fentanyl | – | reversal of respiratory depression | ~50% |
| CN1CC[C@]23c4c5ccc(O)c4O[C@H]2[C@@H](O)C=C[C@H]3[C@H]1C5 | – | antinociception, warm-water tail withdrawal | Swiss Webster mice | – | – | ED50 | 7.8 mg/kg |
| CN(C)[C@]1(c2ccccc2)CC[C@]2(CC1)OCCc1c3cc(F)ccc3[nH]c12 | – | – | rodent chronic pain models | – | reference: morphine | relative potency | ~1000 fold |
| CNC(=O)ON=C(C)SC | – | – | – | – | – | half-life | 2 to 3 h |

A few entries again:
| Structure (SMILES) | target or system | test | test system | setting | scale | measurement | value |
| --- | --- | --- | --- | --- | --- | --- | --- |
| CC(C)C[C@@H]1NC(=O)[C@H](CCC(=O)O)NC(=O)[C@@H]2CCCN2C(=O)[C@H](Cc2c[nH]cn2)NC(=O)[C@H](CCC(=O)O)NC(=O)[C@H](C(C)C)NC(=O)[C@H](CO)NC(=O)[C@@H]2CSSC[C@H](NC(=O)CN)C(=O)N[C@@H](CSSC[C@@H](C(N)=O)NC1=O)C(=O)N[C@@H](CO)C(=O)N[C@@H](Cc1c[nH]cn1)C(=O)N1CCC[C@H]1C(=O)N[C@@H](C)C(=O)N2 | Chrna3/Chrnb2/Chrna6, with beta3 subunit (Rattus norvegicus, UniProt P04757+P12390+P43143) | antagonist | – | – | – | IC50 | 114 nM |
